Results gathered from unrelated publications.
Compare with care: the assays were run in different laboratories. Values joined by “and” are separate records of one study, mostly repeats; a detail may differ. ± marks the error that the study gave.

CC[n+]1cccc2cc(/C=N/NC(=O)N/N=C/c3ccc4c(ccc[n+]4CC)c3)ccc21
ΔTm (MYC parallel G4 DNA; FRET melting; 1 µM, DNA 0.2 µM, added: duplex DNA competitor 10 µM): 4.9 ± 0.1 °C

CNS(=O)(=O)Nc1nccc(Cc2c(C)c3ccc(Oc4ncccc4F)cc3oc2=O)c1F
IC50 (CAMA-1; cell viability; 7 days): > 1 µM

CCC(=O)N1CCN(c2ccc(NC(=O)c3ccc([N+](=O)[O-])o3)cc2Cl)CC1
Emax (Mus musculus; gene silencing, high-content imaging; LDR reporter GFP cells; 30 h, retest run 1): 46%

C[n+]1ccc(/C=N/NC(=O)c2cccc(C(=O)N/N=C/c3cc[n+](C)cc3)n2)cc1
ΔTm (hp2 hairpin duplex DNA; FRET melting; 1 µM): 0.8 ± 0.5 °C

C=CC(=O)Nc1cccc(Cn2ncc3cnc(Nc4cnn(CCOC)c4)nc32)c1
percent of control (RAF1 human; binding, KINOMEscan; 100 nM; lower = stronger binding): 100%

COC1OC(C)C(OS(=O)(=O)O)C(OC2OC(C)C(OS(=O)(=O)O)C(OC3OC(C)C(OS(=O)(=O)O)C(OC4OC(C)C(OS(=O)(=O)O)C(OC5OC(C)C(OS(=O)(=O)O)C(OC6OC(C)C(OS(=O)(=O)O)C(OC7OC(C)C(OS(=O)(=O)O)C(OC8OC(C)C(OS(=O)(=O)O)C(OC9OC(C)C(OS(=O)(=O)O)C(OC%10OC(C)C(OS(=O)(=O)O)C(OC%11OC(C)C(OS(=O)(=O)O)C(OS(=O)(=O)O)C%11O)C%10O)C9O)C8O)C7O)C6O)C5O)C4O)C3O)C2O)C1O (stereo not drawn)
prothrombin time (human plasma; 128 µg/mL): 14.7 ± 0.5 s

Cc1ncsc1-c1ccc(C(C)NC(=O)C2CC(O)CN2C(=O)C(NC(=O)CCCCCCCCCCN2CCCC(Nc3ncc(Cl)c(Nc4ccccc4S(=O)(=O)C(C)C)n3)C2)C(C)(C)C)cc1 (stereo not drawn)
log2 fold change (22Rv1; RNA-seq, item: MYC mRNA; concentration not given; relative to: DMSO): -1.25

O=C(N/N=C/c1ccc2c(ccc[n+]2Cc2ccccc2)c1)c1ccc2ccc(C(=O)N/N=C/c3ccc4c(ccc[n+]4Cc4ccccc4)c3)nc2n1
ΔTm (MYC parallel G4 DNA; FRET melting; 1 µM, DNA 0.2 µM, added: duplex DNA competitor 10 µM): 12.3 ± 0.1 °C

COC1CN([C@H]2CC[C@H]([C@@]3(C)Oc4c(Cl)cc(C(=O)NCc5c(SC)cc(C)[nH]c5=O)c(C)c4O3)CC2)C1
log2 fold change (RNA-seq, item: STAB2 mouse homolog; mouse, HT-1376 xenograft, whole blood; dose not given; relative to: vehicle): 2.48

C[n+]1cc(/C=N/NC(=O)c2cccc(C(=O)N/N=C/c3cc4ccccc4[n+](C)c3)c2)cc2ccccc21
ΔTm (hp2 hairpin duplex DNA; FRET melting; 1 µM, added: ds26 10 µM): 0.7 ± 0.1 °C

Nc1ncc(-c2cc(-c3cnn(CC(F)(F)F)c3)ncc2F)nc1C(=O)NC1CNCC(F)C1 (stereo not drawn)
remaining binding (ERN1; KINOMEscan; 1 µM; relative to: DMSO control): 100%

O=[N+]([O-])C(=C\Nc1ccccc1O)/C=N/c1ccccc1O
AC50 (Mus musculus; gene silencing, high-content imaging; LDR reporter GFP cells; retest run 1): 10 µM

CC(C)C[C@H](NC(=O)[C@H](CC(=O)O)NC(=O)CNC(=O)[C@@H](N)CCCNC(=N)N)C(=O)N[C@@H](C)C(=O)N[C@H](C(=O)N[C@@H](CC(C)C)C(=O)N[C@@H](CCCNC(=N)N)C(=O)N[C@@H](CCC(N)=O)C(=O)N[C@@H](CC(C)C)C(=O)N[C@@H](C)C(=O)N[C@@H](CCC(N)=O)C(=O)N[C@@H](CCC(=O)O)C(=O)N[C@@H](CC(=O)O)C(=O)NCC(=O)N[C@H](C(=O)N[C@H](C(=O)NCC(=O)N[C@H](C(=O)N[C@@H](CCCNC(=N)N)C(=O)NCCOCCOCCOCCOCCOCCOCCOCCOCCOCCOCCOCCOCCC(=O)N[C@@H](CS)C(N)=O)C(C)C)C(C)C)C(C)C)[C@@H](C)O
fluorescence signal ratio (ex vivo NIR imaging; NOD/SCID mice, xenograft, H2009 xenograft; intravenous, 30 µg, 24 h; relative to: spleen): 3740 and 743 and 36.1

O=C(N/N=C/c1ccccn1)c1cc(-c2ccc(Cl)cc2)nc2ccccc12
Emax (Mus musculus; gene silencing, high-content imaging; LDR reporter GFP cells; 30 h, retest run 2): 149%

O=C(N/N=C/c1ccc(C[n+]2ccccc2)cc1)c1cncc(C(=O)N/N=C/c2ccc(C[n+]3ccccc3)cc2)n1
ΔTm (hp2 hairpin duplex DNA; FRET melting; 1 µM, added: ds26 10 µM): 1 ± 0.2 °C

Some of these lines once more:
C=CC(=O)Nc1cccc(Cn2ncc3cnc(Nc4cnn(CCOC)c4)nc32)c1
percent of control (RAF1 human; binding, KINOMEscan; 100 nM; lower = stronger binding): 100%
